Literature values, collected from citations in different studies.
Compare with care: the assays were run in different laboratories. Numbers after ± are the reported error.

Substance	target	test	system	setting	IC50 [µM]
Cc1ccc([N+](=O)[O-])cc1S(=O)(=O)N(C)/N=C/c1cnc2ccc(Br)cn12	phosphatidylinositol 5-phosphate 4-kinase type II beta	enzyme activity, inhibitor	–	together with: 10 µM ATP	> 100
NCCCOc1cc2ccccc2cc1C(=O)NCCCOc1cc2ccccc2cc1C(=O)Nc1ccc(Cl)cc1O	CREB	CREB-mediated gene transcription, inhibitor	HEK293T	together with: forskolin 10 µM	2.22 ± 0.38
N[C@@H](Cn1oc(=O)[nH]c1=O)C(=O)O	glutamate carboxypeptidase II	enzyme activity, radioenzymatic or HPLC	–	–	10
O=C(Nc1ccc([N+](=O)[O-])cc1Cl)c1cc(Cl)ccc1O	STAT3	reporter gene, inhibitor	HeLa	24 h	0.25
CC(=O)OC[C@H]1O[C@@H]([S-])[C@H](OC(C)=O)[C@@H](OC(C)=O)[C@@H]1OC(C)=O.CCP(CC)CC.[Au+]	thioredoxin reductase	enzyme activity, inhibitor	–	–	0.02
CN1CCN(c2ccc(Nc3ncc4cc5n(c4n3)C3(CCCCC3)CNC5=O)nc2)CC1	OCT1	transport, inhibitor	–	–	0.604
CC1(C)CCC(C)(C)c2cc(C#Cc3ccc(C(=O)O)cc3)ccc21	CYP26A1	enzyme activity, inhibitor	–	together with: 9-cis-retinoic acid	8.3 ± 5.23
YIRLHF	angiotensin-converting enzyme	enzyme activity, inhibitor	peptide	–	122
CC(C)/N=c1\cc2n(-c3ccc(Cl)cc3)c3ccccc3nc-2cc1Nc1ccc(Cl)cc1	OSTα/β (human)	transport, inhibitor	–	–	30 to 50
CCCC(CCC)C(=O)O	HDAC6	inhibitor	–	–	> 20000
CC(C)[C@H]1c2ccc(F)cc2CC[C@@]1(CCN(C)CCCc1nc2ccccc2[nH]1)OC(=O)C1CC1	T-type calcium channel	inhibitor	HEK293	–	6.8
Cc1cc([C@H](C)Nc2ccccc2)c2oc(N3CCOCC3)cc(=O)c2c1	phosphatidylinositol 5-phosphate 4-kinase type II beta	enzyme activity, inhibitor	–	together with: 10 µM ATP	> 100
C[C@@H](NCCN(C)C)[C@@H]1CC[C@@H]2[C@H]3CCc4cc(O)ccc4[C@@H]3CC[C@]21C	CatSper, mouse	alkalization/depolarization-induced activation, inhibitor	mouse sperm	–	0.83
CC(C)C[C@H](NC(=O)[C@@H](CC(=O)NO)Cc1ccccc1)C(=O)O	neurolysin	inhibitor	–	range reported for several peptidases	0.03 to 0.06
CNC(=O)[C@@H](NC(=O)[C@H](CCCc1ccccc1)[C@H](C)N(O)C=O)C(C)(C)C	recombinant ADAM10	enzyme activity, inhibitor	–	–	0.0053
COc1ccc2c(c1)CCCN2c1nc(Cl)nc2ccccc12	tubulin	tubulin polymerisation, inhibitor	–	20 min, 30 °C	0.93 ± 0.04
CCCCCCCCCCCCc1cc(=O)c2ccccc2n1O	NDH-2	enzyme activity, inhibitor	–	–	~0.3
[Mn+2]	voltage-gated calcium channels	barium current, blocker	–	–	58
C=CCn1c(=O)c2cnc(Nc3ccc(N4CCN(C)CC4)cc3)nc2n1-c1cccc(C(C)(C)O)n1	CDK1 phosphorylation	–	–	derived from non-clinical data	0.24

Substance	target	test	system	setting	IC50 [µM]
C=C(NC(=O)C(=C)NC(=O)c1csc(C2=N[C@@H]3c4csc(n4)[C@H]4NC(=O)c5csc(n5)[C@H]([C@](C)(O)[C@@H](C)O)NC(=O)[C@H]5CSC(=N5)/C(=C/C)NC(=O)[C@H]([C@@H](C)O)NC(=O)c5csc(n5)[C@]3(CC2)NC(=O)[C@H](C)NC(=O)C(=C)NC(=O)[C@H](C)NC(=O)[C@H]([C@@H](C)CC)N[C@@H]2C=Cc3c([C@H](C)O)cc(nc3[C@H]2O)C(=O)O[C@@H]4C)n1)C(N)=O	FOXM1, full length	DNA binding, inhibitor	–	–	42.6 ± 1.4
CN1CC(=O)N2[C@H](c3ccc4c(c3)OCO4)c3[nH]c4ccccc4c3C[C@@H]2C1=O	PDE1	inhibitor	–	–	> 10
β-secretase inhibitor IV	BACE1 (human)	amyloid-beta production	HEK293 overexpressing APP NFEV	–	0.015
O=C(O)c1ccc(/C=C2\SC(=S)N(c3cccc(C(F)(F)F)c3)C2=O)cc1	CFTR	chloride conductance, blocker	–	depends on cell type and voltage	0.3 to 3
COc1ccc2c(c1OC)N=C(NC(=O)c1cccnc1)N1CCN=C21	PI4KIIα	enzyme activity, inhibitor	–	together with: 10 µM ATP	> 100
CNC(=O)[C@H](Cc1c[nH]c2ccccc12)NC(=O)[C@@H](CC(=O)NO)CC(C)C	recombinant ADAM10	enzyme activity, inhibitor	–	–	0.0081 to 0.11
C1=C/COCc2cc(ccc2OCCN2CCCC2)Nc2nccc(n2)-c2cccc(c2)COC/1	CSF1R human	phosphorylation, inhibitor	macrophages, CLL patients	–	< 1
Oc1cccc(-c2nc(N3CCOCC3)c3oc4ncccc4c3n2)c1	mTORC1	enzyme activity, inhibitor	–	together with: 10 µM ATP	0.02
CC(C)[C@H]1C(=O)N[C@@H](CCCNC(=N)N)C(=O)NCC(=O)N[C@@H](CC(=O)O)C(=O)N[C@H](Cc2ccccc2)C(=O)N1C	integrin αvβ5	binding, inhibitor	–	–	0.12
COc1ccc(S(=O)(=O)N(CCO)c2ccccc2CN(C)CC=Cc2ccc(Cl)cc2)cc1	CaMKII	inhibitor	–	–	> 2
O=c1c(O)c(-c2ccc(O)cc2)oc2cc(O)cc(O)c12	trypsin	enzyme activity, inhibitor	–	range of inhibitory concentrations	50 to 100
CC(C)[C@@H]1NC(=O)C(C)(C)NC(=O)c2csc(n2)CNC(=O)C[C@@H](/C=C/CCS)OC1=O	HDAC10	enzyme activity, inhibitor, cell-free	–	–	0.0028
CCC(CC)C(c1ccc(Nc2nc3ccccc3s2)cc1)n1cncn1 (stereo not shown)	CYP26A1	enzyme activity, inhibitor	–	together with: 9-cis-retinoic acid	0.005 ± 0.0008
NC[C@@H]1O[C@H](O[C@H]2[C@@H](O)[C@H](O[C@@H]3[C@@H](O)[C@H](N)C[C@H](N)[C@H]3O[C@H]3O[C@H](CO)[C@@H](O)[C@H](O)[C@H]3N)O[C@@H]2CO)[C@H](N)[C@@H](O)[C@@H]1O	Escherichia coli ribosome	translation, inhibitor, refers to: firefly luciferase	Escherichia coli S30 lysate	–	0.051 ± 0.005
OC(c1cc(C(F)(F)F)nc2c(C(F)(F)F)cccc12)C1CCCCN1 (stereo not shown)	connexin-36 gap junction channel	channel conductance, inhibitor	–	–	0.3
Cc1cc(C(C)Nc2ccccc2)c2oc(-c3ccncc3)cc(=O)c2c1 (stereo not shown)	ATR	kinase activity, inhibitor	–	together with: 10 µM ATP	> 100
CC(C)C[C@H](CC(=O)NO)C(=O)N[C@H](C(=O)N[C@@H](C)C(=O)NCCN)C(C)(C)C	recombinant ADAM10	enzyme activity, inhibitor	–	–	3
CCN(CCO)CCCC(C)Nc1ccnc2cc(Cl)ccc12 (stereo not shown)	Ito channel	ion current, inhibitor	CHO cells	room temperature	> 300

Some of these lines once more:
Substance	target	test	system	setting	IC50 [µM]
Oc1cccc(-c2nc(N3CCOCC3)c3oc4ncccc4c3n2)c1	mTORC1	enzyme activity, inhibitor	–	together with: 10 µM ATP	0.02
CC(C)[C@H]1C(=O)N[C@@H](CCCNC(=N)N)C(=O)NCC(=O)N[C@@H](CC(=O)O)C(=O)N[C@H](Cc2ccccc2)C(=O)N1C	integrin αvβ5	binding, inhibitor	–	–	0.12
COc1ccc(S(=O)(=O)N(CCO)c2ccccc2CN(C)CC=Cc2ccc(Cl)cc2)cc1	CaMKII	inhibitor	–	–	> 2
O=c1c(O)c(-c2ccc(O)cc2)oc2cc(O)cc(O)c12	trypsin	enzyme activity, inhibitor	–	range of inhibitory concentrations	50 to 100
CC(C)[C@@H]1NC(=O)C(C)(C)NC(=O)c2csc(n2)CNC(=O)C[C@@H](/C=C/CCS)OC1=O	HDAC10	enzyme activity, inhibitor, cell-free	–	–	0.0028
